Results pooled from the literature.
Each numbered part is a random draw from the data of one study; scales do not carry over between parts.
Sequence of UniProt P11802 (whole entry, looked up): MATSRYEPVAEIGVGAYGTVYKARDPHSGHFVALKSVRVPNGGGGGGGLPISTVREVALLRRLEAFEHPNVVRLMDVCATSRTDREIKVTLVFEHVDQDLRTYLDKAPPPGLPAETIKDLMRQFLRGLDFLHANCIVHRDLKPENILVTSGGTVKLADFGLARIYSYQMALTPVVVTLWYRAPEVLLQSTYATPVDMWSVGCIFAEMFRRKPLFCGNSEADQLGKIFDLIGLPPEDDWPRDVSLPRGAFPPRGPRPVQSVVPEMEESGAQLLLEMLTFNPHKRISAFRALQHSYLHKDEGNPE
Sequence of UniProt Q9Y6E0 (whole entry, looked up): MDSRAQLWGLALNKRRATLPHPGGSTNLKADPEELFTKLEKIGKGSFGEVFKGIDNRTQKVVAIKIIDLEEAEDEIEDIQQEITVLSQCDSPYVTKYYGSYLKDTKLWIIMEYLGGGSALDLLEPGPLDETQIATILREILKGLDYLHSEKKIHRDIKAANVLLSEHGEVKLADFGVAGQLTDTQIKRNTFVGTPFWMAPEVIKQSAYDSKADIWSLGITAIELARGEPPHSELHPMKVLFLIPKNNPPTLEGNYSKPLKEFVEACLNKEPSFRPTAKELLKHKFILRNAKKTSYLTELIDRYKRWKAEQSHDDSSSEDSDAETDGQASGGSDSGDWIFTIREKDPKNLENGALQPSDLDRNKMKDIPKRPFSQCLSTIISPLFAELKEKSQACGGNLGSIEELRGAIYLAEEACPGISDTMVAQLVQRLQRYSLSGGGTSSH
Sequence of UniProt P49841 (whole entry, looked up): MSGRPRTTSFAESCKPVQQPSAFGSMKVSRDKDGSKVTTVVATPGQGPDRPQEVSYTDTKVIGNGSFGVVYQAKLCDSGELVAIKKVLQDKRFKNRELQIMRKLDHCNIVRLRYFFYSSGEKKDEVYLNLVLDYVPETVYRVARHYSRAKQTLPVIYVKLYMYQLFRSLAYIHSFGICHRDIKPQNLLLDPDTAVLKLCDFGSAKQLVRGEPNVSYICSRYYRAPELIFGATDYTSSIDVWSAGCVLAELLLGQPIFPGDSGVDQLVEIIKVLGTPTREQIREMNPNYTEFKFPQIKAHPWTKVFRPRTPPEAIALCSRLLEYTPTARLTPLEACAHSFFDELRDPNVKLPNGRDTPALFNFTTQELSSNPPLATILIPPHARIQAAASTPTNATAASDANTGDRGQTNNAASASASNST
Sequence of UniProt Q9UQM7 (whole entry, looked up): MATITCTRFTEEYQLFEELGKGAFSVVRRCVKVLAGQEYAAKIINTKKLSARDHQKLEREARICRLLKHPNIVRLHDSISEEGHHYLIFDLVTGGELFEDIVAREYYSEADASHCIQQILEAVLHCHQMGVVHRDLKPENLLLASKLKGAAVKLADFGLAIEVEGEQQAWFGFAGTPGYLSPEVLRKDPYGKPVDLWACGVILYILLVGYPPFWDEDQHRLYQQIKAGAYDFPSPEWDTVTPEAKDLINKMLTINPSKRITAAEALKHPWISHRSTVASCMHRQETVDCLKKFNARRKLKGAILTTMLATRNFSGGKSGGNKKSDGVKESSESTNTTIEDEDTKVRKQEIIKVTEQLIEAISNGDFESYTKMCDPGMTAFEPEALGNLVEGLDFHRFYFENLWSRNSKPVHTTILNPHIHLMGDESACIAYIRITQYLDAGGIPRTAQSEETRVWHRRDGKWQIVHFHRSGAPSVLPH
Sequence of UniProt P51957 (whole entry, looked up): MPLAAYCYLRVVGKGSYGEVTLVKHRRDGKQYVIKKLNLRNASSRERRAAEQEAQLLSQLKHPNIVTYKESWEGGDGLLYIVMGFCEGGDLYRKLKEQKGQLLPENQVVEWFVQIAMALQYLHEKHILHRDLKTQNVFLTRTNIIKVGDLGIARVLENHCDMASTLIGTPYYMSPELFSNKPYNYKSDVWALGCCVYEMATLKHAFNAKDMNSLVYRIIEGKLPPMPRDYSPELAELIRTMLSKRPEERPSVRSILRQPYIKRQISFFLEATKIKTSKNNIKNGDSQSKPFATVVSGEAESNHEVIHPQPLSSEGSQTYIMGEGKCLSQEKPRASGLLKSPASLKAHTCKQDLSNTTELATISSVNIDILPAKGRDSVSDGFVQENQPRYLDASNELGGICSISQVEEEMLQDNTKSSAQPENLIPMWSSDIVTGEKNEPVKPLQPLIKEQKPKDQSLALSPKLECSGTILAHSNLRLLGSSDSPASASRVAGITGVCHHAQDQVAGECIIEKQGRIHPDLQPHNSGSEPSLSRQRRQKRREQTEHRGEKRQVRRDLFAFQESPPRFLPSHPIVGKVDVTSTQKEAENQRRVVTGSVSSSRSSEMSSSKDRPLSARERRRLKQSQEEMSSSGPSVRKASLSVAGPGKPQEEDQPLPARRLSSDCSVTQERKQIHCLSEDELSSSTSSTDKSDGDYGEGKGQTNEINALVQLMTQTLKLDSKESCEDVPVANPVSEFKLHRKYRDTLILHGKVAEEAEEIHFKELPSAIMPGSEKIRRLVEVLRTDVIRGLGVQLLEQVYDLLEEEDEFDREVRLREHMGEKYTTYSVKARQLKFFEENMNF
Sequence of UniProt Q9BXA7 (whole entry, looked up): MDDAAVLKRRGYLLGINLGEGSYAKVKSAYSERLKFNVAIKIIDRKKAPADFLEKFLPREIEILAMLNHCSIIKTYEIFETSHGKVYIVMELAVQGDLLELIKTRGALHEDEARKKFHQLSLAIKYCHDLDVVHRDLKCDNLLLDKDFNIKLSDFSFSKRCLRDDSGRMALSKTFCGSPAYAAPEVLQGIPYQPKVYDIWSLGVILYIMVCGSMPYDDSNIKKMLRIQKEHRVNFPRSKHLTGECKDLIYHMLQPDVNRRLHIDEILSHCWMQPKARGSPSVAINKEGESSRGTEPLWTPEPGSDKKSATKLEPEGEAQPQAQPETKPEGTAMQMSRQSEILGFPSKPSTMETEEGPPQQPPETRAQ

Set 1
Structure (SMILES): C=CCc1ccc(O)c(-c2ccc(O)c(CC=C)c2)c1
Effect on: chloride current
Method: whole-cell voltage clamp
With: 4 µM Ca2+
ANO1 del476-501/F628A: Anoctamin-1 (ANO1, Homo sapiens, UniProt Q5XXA6, del476-501/F628A)
Sequence of UniProt Q5XXA6 (whole entry, unmodified, looked up): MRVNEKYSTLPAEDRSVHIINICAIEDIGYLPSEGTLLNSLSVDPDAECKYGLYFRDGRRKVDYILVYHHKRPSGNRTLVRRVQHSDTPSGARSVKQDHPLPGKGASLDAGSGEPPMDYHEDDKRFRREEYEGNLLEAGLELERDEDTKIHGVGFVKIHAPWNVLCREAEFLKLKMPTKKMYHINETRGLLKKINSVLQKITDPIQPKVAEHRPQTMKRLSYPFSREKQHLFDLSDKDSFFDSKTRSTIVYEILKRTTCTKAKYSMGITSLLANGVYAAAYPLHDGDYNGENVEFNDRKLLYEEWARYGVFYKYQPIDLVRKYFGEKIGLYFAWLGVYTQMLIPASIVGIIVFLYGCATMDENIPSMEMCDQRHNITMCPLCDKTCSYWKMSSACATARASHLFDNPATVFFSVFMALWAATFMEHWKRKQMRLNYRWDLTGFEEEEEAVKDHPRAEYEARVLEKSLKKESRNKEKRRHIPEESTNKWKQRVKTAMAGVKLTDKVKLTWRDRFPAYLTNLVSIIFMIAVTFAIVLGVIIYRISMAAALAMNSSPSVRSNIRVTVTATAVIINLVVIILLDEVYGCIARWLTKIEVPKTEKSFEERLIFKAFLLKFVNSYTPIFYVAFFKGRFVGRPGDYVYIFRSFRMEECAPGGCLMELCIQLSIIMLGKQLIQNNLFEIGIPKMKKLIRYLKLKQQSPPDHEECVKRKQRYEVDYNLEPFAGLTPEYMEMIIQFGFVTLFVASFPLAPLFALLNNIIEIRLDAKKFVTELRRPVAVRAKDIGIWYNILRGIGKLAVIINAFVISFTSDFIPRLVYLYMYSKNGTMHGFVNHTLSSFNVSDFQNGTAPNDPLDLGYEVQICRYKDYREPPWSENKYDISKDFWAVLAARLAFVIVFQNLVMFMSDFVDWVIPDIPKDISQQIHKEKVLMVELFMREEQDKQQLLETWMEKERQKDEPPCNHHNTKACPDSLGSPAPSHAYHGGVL
For ANO1 del476-501/F628A; 100 µM, I-V at 80 mV: normalized current read 0.18.
For Anoctamin-1 (ANO1, Homo sapiens, UniProt Q5XXA6, del476-501); 10 µM, wild type, I-V at 40 mV: normalized current read 0.114.
ANO1 del476-501/F628A; 1 µM, concentration-response at 60 mV — normalized current: 0.578.
For ANO1 del476-501/F628A; 30 µM, I-V at -40 mV: normalized current read -0.152.
For ANO1 del476-501/F628A; 3 µM, concentration-response at -40 mV: normalized current read -0.354.
For ANO1 del476-501/F628A; 100 µM, I-V at 0 mV: normalized current read -0.0017.

Set 2
Species: mouse
Matrix: microsomes or S9
Tested at: 2 µM
Time: 0.5 h
With `COc1cc(=O)n(-c2ccc(F)cc2)nc1C(=O)Nc1ccc(-c2nc3ccc(C)cc3s2)cc1` the remaining compound was 49.6%.
With `O=C1NC2c3ccccc3C(=O)N2c2ccccc21` (stereo not shown) the remaining compound was 14.8%.
With `Cc1cc(Nc2cnccn2)cc(C2CCCN2C(=O)CC2(O)CCCCC2)n1` (stereo not shown) the remaining compound was 8.03%.
With `Cc1cc(C)n(NC(=O)c2nn(C)cc2Br)c(=O)c1` the remaining compound was 94.7%.
For `CS(=O)(=O)N1C2CCC1CC(NC(=O)Cn1cc(-c3ccc(F)cc3)cn1)C2` (stereo not shown), the remaining compound was 23.1%.
For `CC1CCN([S+]([O-])C23CC4CC(CC(C4)C2)C3)CC1` (stereo not shown), the remaining compound was 0.173%.
The remaining compound of `Cc1c2cnn(CC(=O)NC3CCCc4ccccc43)c(=O)c2c(C)n1Cc1cccc(Cl)c1` (stereo not shown) is reported as 0.442%.
With `CCOC(=O)c1cc(CC)sc1NC(=O)COC` the remaining compound was 0.432%.

Set 3
Structure (SMILES): CCCCN(CCCC)C(=O)CN1C[C@H](c2cc(OC)c3c(c2)OCO3)[C@@H](C(=O)O)[C@@H]1CC(C)(C)CCC
Effect on: cell-free assay
Method: competition with immobilised ligand
Tested at: 1 µM
It gave 100% for remaining binding (PIM3 (Homo sapiens, UniProt Q86V86)).
The remaining binding was 96.9% (Tyrosine-protein kinase ABL1, phosphorylated (ABL1, Homo sapiens, UniProt P00519, M351T)).
It gave 100% for remaining binding (GSK3B (Homo sapiens, UniProt P49841)).
The remaining binding was 85% (NEK4 (Homo sapiens, UniProt P51957)).
Tyrosine-protein kinase ABL1, phosphorylated (ABL1, Homo sapiens, UniProt P00519, Q252H) — remaining binding: 97.7%.
CAMK2A (Homo sapiens, UniProt Q9UQM7) — remaining binding: 100%.
TSSK1B (Homo sapiens, UniProt Q9BXA7) — remaining binding: 100%.
The remaining binding was 100% (STK24 (Homo sapiens, UniProt Q9Y6E0)).
For CDK4 (Homo sapiens, UniProt P11802): remaining binding read 42.7%.

Set 4
Target: Beta-1 adrenergic receptor (ADRB1, Homo sapiens, UniProt P08588)
Sequence of UniProt P08588 (whole entry, looked up): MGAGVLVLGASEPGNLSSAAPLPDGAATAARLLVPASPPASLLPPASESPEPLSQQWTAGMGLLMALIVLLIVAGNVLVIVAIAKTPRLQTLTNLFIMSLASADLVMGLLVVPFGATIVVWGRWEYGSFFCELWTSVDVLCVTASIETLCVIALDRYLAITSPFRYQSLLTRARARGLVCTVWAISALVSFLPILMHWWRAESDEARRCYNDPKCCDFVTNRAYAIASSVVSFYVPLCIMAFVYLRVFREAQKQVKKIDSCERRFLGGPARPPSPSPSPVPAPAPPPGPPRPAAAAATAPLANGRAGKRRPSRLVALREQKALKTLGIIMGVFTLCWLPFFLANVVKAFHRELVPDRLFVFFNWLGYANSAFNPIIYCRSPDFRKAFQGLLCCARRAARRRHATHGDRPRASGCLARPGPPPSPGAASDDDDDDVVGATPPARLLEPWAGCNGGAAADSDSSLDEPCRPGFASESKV
Mode: antagonist
The IC50 of `Cc1cnccc1CN(C)Cc1ccc2c(C)cc(=O)oc2c1` is reported as at least 100 µM.
The IC50 of `CCc1nc(Nc2cccc(C(O)CO)c2)c2ccsc2n1` (stereo not shown) is reported as at least 100 µM.
With `COCc1nc(NCCc2nc(-c3ccccn3)no2)c2cnn(C)c2n1` the IC50 was at least 100 µM.
With `C/C=C(/C)c1c(Cl)c(O)c(C)c2c1Oc1c(Cl)c(O)c(Cl)c(C)c1C(=O)O2` the IC50 was at least 100 µM.
With `O=C(Nc1ccccc1OC(F)(F)F)c1sc2cc(F)ccc2c1Cl` the IC50 was at least 100 µM.
For `COc1ccccc1N1CCN(C(=O)Cc2cccs2)CC1`, the IC50 was at least 100 µM.
For `CCN1C(=O)COC[C@@H]1[C@H](O)c1ccc(NC(=O)CCc2ccccc2)cc1`, the IC50 was at least 100 µM.
For `COc1ccccc1N1CCN(C(C)C(=O)Nc2ccc(F)cc2)CC1` (stereo not shown), the IC50 was at least 100 µM.

For quick reference, copied from above (set 2):
With `Cc1cc(C)n(NC(=O)c2nn(C)cc2Br)c(=O)c1` the remaining compound was 94.7%.
For `CS(=O)(=O)N1C2CCC1CC(NC(=O)Cn1cc(-c3ccc(F)cc3)cn1)C2` (stereo not shown), the remaining compound was 23.1%.
For `CC1CCN([S+]([O-])C23CC4CC(CC(C4)C2)C3)CC1` (stereo not shown), the remaining compound was 0.173%.
